Assay results pooled from the literature.
Several values in a cell are separate wells, animals, samples, runs or records.
Target: Serine/threonine-protein kinase D1 (PRKD1, Homo sapiens, UniProt Q15139)

| Compound | test | conditions | how to read | endpoint | value |
| --- | --- | --- | --- | --- | --- |
| C=CC(=O)N1Cc2nc(-c3cc(-c4cc(Cl)cnc4Cl)c(F)cc3F)n(-c3ccncn3)c2C1 | cell-free assay, inhibitor | 1 µM |  | inhibition | 9.6% |
| CN1CC[C@@H](COc2cnc(C#N)cc2-c2ccn3nc(NC(=O)C4CC4)cc3c2)C1 | enzyme activity, inhibitor | 1 µM |  | inhibition | -4% |
| Cc1cccc(-c2ccc3nc(NC(=O)C4CCCCC4)nn3c2)c1 | enzyme activity, Dundee kinase panel | 10 µM |  | remaining activity | 89% |
| Cc1cccc(O[C@H]2CCC[C@@H](C(C)CNCc3ccncc3)C2)c1 (relative stereo) | enzyme activity, inhibitor | 10 µM |  | inhibition | -1% |
| CCN1CCN(Cc2ccc(C(=O)Nc3ccc(C)c(NCc4cnc5[nH]ccc5c4OC)c3)cc2C(F)(F)F)CC1 | binding, competition with immobilised ligand | 1 µM |  | remaining binding | 100% |
| O=C=[N][Ru-4]123([n]4c5ccc(O)cc5c5c6c(c7cc(F)c[n+]1c7c54)C(=O)NC6=O)[S+]1CC[S+]2CC[S+]3CC1 (stereo not drawn) | enzyme activity | 100 nM, human enzyme, with: 10 µM ATP | baseline: untreated | remaining activity | 100% |
| C=CC(=O)Nc1cccc(-c2cnc3[nH]cc(C(=O)NC(C)(C)C)c3n2)c1 | kinase activity | 0.1 µM |  | inhibition | -1% and 3% |
| O=c1c(-c2ccc(Cl)c(CN3CCOCC3)c2)coc2cc(O)ccc12 | enzyme activity, inhibitor | 1 µM |  | remaining activity | 104% |
| NC(=O)[C@@H](O)C[C@H]1CCc2sc3ncnc(O[C@H]4CC[C@H](N5CCOCC5)CC4)c3c21 | enzyme activity, inhibitor | 10 µM |  | inhibition | 7% |
| CCn1cc(C(=O)O)c(=O)c2c(N)c(F)c(NC3CCCCC3)cc21 | kinase activity | 0.1 µM, with: ATP at Km |  | inhibition | 18.4% |
| Nc1ncc2c(n1)-c1c([nH]c3ccc(C4=CCOCC4)cc13)CCC2 | binding, competition with immobilised ligand | 1 µM |  | remaining binding | 90% |
| C=CC(=O)N1CCc2ccc(-n3c(=O)ccc4cnc5ccc(-c6cnn(C)c6)cc5c43)cc21 | KINOMEscan | 1 µM | baseline: DMSO control | remaining binding | 100% |
| COCC12C(=O)NC3C4(C(OC)CC1O)C1CC5(O)C(OC)C(O)C(OC(C)=O)(C1C5OC(=O)c1ccccc1)C3(O)C(OC)C24 (stereo not drawn) | kinase activity, inhibitor, ProQinase kinase profiling | 25 µM | baseline: control | remaining activity | 85% and 109% |
| CNC(=O)C[C@H](Cc1ccc(C#N)cc1)NC(=O)c1cc(-c2ccc(CN[C@H](C)c3ccc(C)cc3)o2)ccc1Cl | enzyme activity, inhibitor | 1 µM |  | activity vs control | 100% |
| CC(C)=CC1OC(C)(C)C2C=C3C(=O)C(Cl)=CC(O)C3C3C(O)C4OC4C(=O)C132 (stereo not drawn) | cell-free assay, competition with immobilised ligand | 10 µM |  | remaining binding | 100% |
| COc1c(OCCCN2CCOCC2)ccc2c1N=C(NC(=O)c1cnc(N)nc1)N1CCN=C21 | kinase activity, inhibitor | 1 µM | baseline: untreated control | remaining activity | 117% |
| Cc1cccc(-c2ccc3nc(NC(=O)C4CCOCC4)nn3c2)c1 | enzyme activity, Dundee kinase panel | 10 µM |  | remaining activity | 110% |
| COc1cc(Nc2nc(C)cc(-c3cnn4nc(OC)ccc34)n2)cc(C(F)(F)F)c1 | inhibitor | 1 µM | baseline: control | remaining activity | 100% |

Repeated from above:
| Compound | test | conditions | how to read | endpoint | value |
| --- | --- | --- | --- | --- | --- |
| O=C=[N][Ru-4]123([n]4c5ccc(O)cc5c5c6c(c7cc(F)c[n+]1c7c54)C(=O)NC6=O)[S+]1CC[S+]2CC[S+]3CC1 (stereo not drawn) | enzyme activity | 100 nM, human enzyme, with: 10 µM ATP | baseline: untreated | remaining activity | 100% |
| NC(=O)[C@@H](O)C[C@H]1CCc2sc3ncnc(O[C@H]4CC[C@H](N5CCOCC5)CC4)c3c21 | enzyme activity, inhibitor | 10 µM |  | inhibition | 7% |
